Experimental data collected from several papers.
Protocols differ between the studies behind these lines. ± marks the error that the study gave.

C[C@H]1Oc2cc(cnc2N)-c2c(nn(C)c2C#N)CN(C)C(=O)c2ccc(F)cc21
AUC(0-inf) (healthy adults; oral tablet, 100 mg single dose, fasted, adjusted geometric mean): 8470 ng·h/mL

COc1cccc(N2CCN(C3=Nc4c(F)cccc4[C@H](CC(=O)O)N3c3cc(C(F)(F)F)ccc3OC)CC2)c1
AUC(0-inf) (UHPLC-MS/MS; healthy women, plasma; intravenous infusion, 480 mg single dose, 60 min infusion, HPβCD formulation): 106000 ± 21600 ng·h/mL

COc1ccc2c3c1O[C@H]1C[C@@H](OC(=O)c4ccccc4)C=C[C@@]31CCN(C)C2
AUC(0-inf) (healthy young men, plasma; intranasal, 11 mg, single dose): 32.9 ng·h/mL

O=C(c1cccnc1-c1ccncc1)N1CCC(O)(Cc2ccccc2)CC1
AUC(0-inf) (healthy subjects, plasma; oral, 300 mg twice daily, day 1): 1510 ng·h/mL

O=C(Nc1nc2cccc(-c3ccc(CN4CCS(=O)(=O)CC4)cc3)n2n1)C1CC1
AUC(0-inf) (healthy subjects, plasma; oral, 100 mg single dose, 1 h after itraconazole, fasting, mean, with: itraconazole 200 mg): 3130 ng·h/mL

COc1ccc2[nH]c([S+]([O-])Cc3ncc(C)c(OC)c3C)nc2c1 (centres unmarked)
AUC(0-inf) (healthy Chinese, CYP2C19 rapid metabolizers, plasma; oral, 20 mg single dose): 366 ± 233 ng·h/mL

NC(=O)c1cnc2[nH]ccc2c1N[C@@H]1[C@@H]2CC3C[C@H]1C[C@@](O)(C3)C2
AUC(0-inf) (healthy Caucasian men, plasma; oral, 20 mg, single dose fasted): 196 ng·h/mL

Oc1ccc2c3c(cnc2c1)-c1ccc(C(F)(F)F)cc1O[C@@H]3c1ccc(OCCN2CC(CF)C2)cc1
AUC(0-inf) (healthy fasted women, plasma; oral solution, 400 mg, [14C]-labelled compound): 3310 ng·h/mL

O=C(C1CCCCC1)N1CC(=O)N2CCc3ccccc3[C@@H]2C1
AUC(0-inf) (healthy men, plasma; oral, 40 mg/kg racemic praziquantel, geometric mean, without ritonavir): 1010 ng·h/mL

CS(=O)(=O)n1cc2c(n1)CN([C@H]1CO[C@H](c3cc(F)ccc3F)[C@@H](N)C1)C2
AUC(0-inf) (healthy Japanese men, plasma; oral, 10 mg single dose, fed, geometric mean): 10.1 µM·h

O=C(NC[C@H](O)CO)c1ccncc1Nc1ccc(I)cc1F
AUC(0-inf) (patients, plasma; oral, 45 mg single dose, day 1, median, with: FOLFIRI): 1160 ng·h/mL

O=C1c2cccc3c2[C@H](CCC3)CN1[C@@H]1CN2CCC1CC2
AUC(0-inf) (healthy volunteers, plasma; oral, 0.50 mg single dose, mean, with: netupitant 300 mg fixed combination): 50.2 ng·h/mL

Nc1cccc2c1C(=O)N(C1CCC(=O)NC1=O)C2=O (centres unmarked)
AUC(0-inf) (healthy male nonsmokers, plasma; oral, 4 mg, geometric mean, ANOVA): 684 ng·h/mL

Cc1ccc([C@@H]2O[C@H](CO)[C@@H](O)[C@H](O)[C@H]2O)cc1Cc1ccc(-c2ccc(F)cc2)s1
AUC(0-inf) (Japanese type 2 diabetes patients, plasma; oral, 100 mg single, normal or mild renal impairment): 6930 ng·h/mL

CC(C)(Sc1ccncc1-c1ccc(C#N)c2ccccc12)C(=O)O
AUC(0-inf) (male, plasma; oral, 15 mg, severe renal impairment, fasted): 372 ng·h/mL

CC(C)(Sc1ccncc1-c1ccc(C#N)c2ccccc12)C(=O)O
AUC(0-inf) (healthy Japanese male subjects, plasma; oral, 15 mg single dose, day 6, fed, geometric mean): 272 ng·h/mL

CCc1cc2c(cc1N1CCC(N3CCOCC3)CC1)C(C)(C)c1[nH]c3cc(C#N)ccc3c1C2=O
AUC(0-inf) (healthy subjects, matched to severe impairment, plasma, total; oral, 300 mg single, fed): 1990 ng·h/mL

CC(C)=CCC[C@](C)(O[C@@H]1O[C@H](CO)[C@@H](O)[C@H](O)[C@H]1O)[C@H]1CC[C@]2(C)[C@@H]1[C@H](O)C[C@@H]1[C@@]3(C)CC[C@H](O[C@@H]4O[C@H](CO)[C@@H](O)[C@H](O)[C@H]4O[C@@H]4O[C@H](CO)[C@@H](O)[C@H](O)[C@H]4O)C(C)(C)[C@@H]3CC[C@]12C
AUC(0-inf) (LC-MS/MS; healthy female volunteers, serum; oral, 3 g red ginseng): 12.3 ± 14.6 ng·h/mL

CCOc1ccc(Cc2cc([C@@H]3S[C@H](CO)[C@@H](O)[C@H](O)[C@H]3O)c(OC)cc2C)cc1
AUC(0-inf) (Japanese type 2 diabetes patients, plasma; oral, 5 mg single dose, eGFR 45-59 mL/min/1.73 m^2): 2160 ± 878 ng·h/mL

CN1C(=O)[C@@H](NC(=O)c2nnc(Cc3ccccc3)[nH]2)COc2ccccc21
AUC(0-inf) (healthy men, plasma; oral, 20 mg once daily, day 1, geometric mean): 1140 ng·h/mL

CC(C)=CCC[C@](C)(O[C@@H]1O[C@H](CO)[C@@H](O)[C@H](O)[C@H]1O)[C@H]1CC[C@]2(C)[C@@H]1[C@H](O)C[C@@H]1[C@@]3(C)CC[C@H](O[C@@H]4O[C@H](CO)[C@@H](O)[C@H](O)[C@H]4O)C(C)(C)[C@@H]3CC[C@]12C
AUC(0-inf) (LC-MS/MS; healthy volunteers, serum; oral, 3 g red ginseng): 4.54 ± 3.7 ng·h/mL

CC1Cc2ccccc2N1NC(=O)c1ccc(Cl)c(S(N)(=O)=O)c1 (centres unmarked)
AUC(0-inf) (healthy Chinese volunteers, whole blood; oral, 1.25 mg, fasting, with: perindopril tert-butylamine 4 mg): 963 ± 146 ng·h/mL

CNC(=O)c1ccc(-c2cnc3ncc(Cc4ccc5ncccc5c4)n3n2)cc1F
AUC(0-inf) (normal hepatic function; oral, 200 mg, mean): 6970 ng·h/mL

COc1cc(OC)c(/C=C/S(=O)(=O)Cc2ccc(OC)c(NCC(=O)O)c2)c(OC)c1
AUC(0-inf) (cancer patients, phase I, plasma; oral, 70 mg twice daily, day 1 cycle 1): 1520 ± 1360 ng·h/mL

Cc1nc(-c2ccc(OCC(C)C)c(C#N)c2)sc1C(=O)O
AUC(0-inf) (healthy Chinese adult volunteers, plasma; oral, 20 mg single dose, fasting): 3550 ± 753 ng·h/mL

CCC[C@H](N[C@@H](C)C(=O)N1[C@H](C(=O)O)C[C@@H]2CCCC[C@@H]21)C(=O)O
AUC(0-inf) (healthy Chinese volunteers, whole blood; oral, 4 mg perindopril tert-butylamine, fasting, with: indapamide 1.25 mg): 73.8 ± 18.6 ng·h/mL
